Experimental data gathered from unrelated publications.
Compare with care: the assays were run in different laboratories. Values joined by “and” are separate records of one study, mostly repeats; a detail may differ. Substitutions count along the parent as printed. ± marks the error that the study gave.
SMN1 full length: SMN1, full length (human, UniProt Q16637, residues 1-294)
UniProt Q16637, sequence (whole entry, looked up): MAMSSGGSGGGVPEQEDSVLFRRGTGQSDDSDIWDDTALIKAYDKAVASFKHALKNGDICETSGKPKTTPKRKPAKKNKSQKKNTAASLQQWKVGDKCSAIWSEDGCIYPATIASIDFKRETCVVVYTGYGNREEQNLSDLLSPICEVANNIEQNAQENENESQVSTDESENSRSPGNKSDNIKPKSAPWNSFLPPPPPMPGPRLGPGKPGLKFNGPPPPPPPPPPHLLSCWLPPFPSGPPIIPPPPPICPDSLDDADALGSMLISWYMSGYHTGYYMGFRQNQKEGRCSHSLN
B1: SLCO1B1 (Homo sapiens, UniProt Q9Y6L6); chain MDQNQHLNKTAEAQPSENKKTRYCNGLKMFLAALSLSFIAKTLGAIIMKSSIIHIERRFEISSSLVGFIDGSFEIGNLLVIVFVSYFGSKLHRPKLIGIGCFIMGIGGVLTALPHFFMGYYRYSKETNINSSENSTSTLSTCLINQILSLNRASPEIVGKGCLKESGSYMWIYVFMGNMLRGIGETPIVPLGLSYIDDFAKEGHSSLYLGILNAIAMIGPIIGFTLGSLFSKMYVDIGYVDLSTIRITPTDSRWVGAWWLNFLVSGLFSIISSIPFFFLPQTPNKPQKERKASLSLHVLETNDEKDQTANLTNQGKNITKNVTGFFQSFKSILTNPLYVMFVLLTLLQVSSYIGAFTYVFKYVEQQYGQPSSKANILLGVITIPIFASGMFLGGYIIKKFKLNTVGIAKFSCFTAVMSLSFYLLYFFILCENKSVAGLTMTYDGNNPVTSHRDVPLSYCNSDCNCDESQWEPVCGNNGITYISPCLAGCKSSSGNKKPIVFYNCSCLEVTGLQNRNYSAHLGECPRDDACTRKFYFFVAIQVLNLFFSALGGTSHVMLIVKIVQPELKSLALGFHSMVIRALGGILAPIYFGALIDTTCIKWSTNNCGTRGSCRTYNSTSFSRVYLGLSSMLRVSSLVLYIILIYAMKKKYQEKDINASENGSVMDEANLESLNKNKHFVPSAGADSETHC
P1: RORγt (mouse); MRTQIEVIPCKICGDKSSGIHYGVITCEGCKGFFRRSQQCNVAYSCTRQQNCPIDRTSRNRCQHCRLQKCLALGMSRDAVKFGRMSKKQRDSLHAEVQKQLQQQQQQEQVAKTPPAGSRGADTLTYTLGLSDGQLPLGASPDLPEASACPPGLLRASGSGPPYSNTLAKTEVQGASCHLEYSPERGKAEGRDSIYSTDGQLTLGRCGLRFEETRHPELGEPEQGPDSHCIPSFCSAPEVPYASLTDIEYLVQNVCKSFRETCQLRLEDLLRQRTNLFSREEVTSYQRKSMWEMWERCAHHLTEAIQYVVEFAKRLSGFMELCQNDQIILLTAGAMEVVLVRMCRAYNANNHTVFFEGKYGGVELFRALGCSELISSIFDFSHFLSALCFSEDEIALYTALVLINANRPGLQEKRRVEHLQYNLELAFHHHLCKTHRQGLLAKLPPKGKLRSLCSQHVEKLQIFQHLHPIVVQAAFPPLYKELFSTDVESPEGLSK
B2: ABCC3 (Homo sapiens, UniProt O15438); chain MDALCGSGELGSKFWDSNLSVHTENPDLTPCFQNSLLAWVPCIYLWVALPCYLLYLRHHCRGYIILSHLSKLKMVLGVLLWCVSWADLFYSFHGLVHGRAPAPVFFVTPLVVGVTMLLATLLIQYERLQGVQSSGVLIIFWFLCVVCAIVPFRSKILLAKAEGEISDPFRFTTFYIHFALVLSALILACFREKPPFFSAKNVDPNPYPETSAGFLSRLFFWWFTKMAIYGYRHPLEEKDLWSLKEEDRSQMVVQQLLEAWRKQEKQTARHKASAAPGKNASGEDEVLLGARPRPRKPSFLKALLATFGSSFLISACFKLIQDLLSFINPQLLSILIRFISNPMAPSWWGFLVAGLMFLCSMMQSLILQHYYHYIFVTGVKFRTGIMGVIYRKALVITNSVKRASTVGEIVNLMSVDAQRFMDLAPFLNLLWSAPLQIILAIYFLWQNLGPSVLAGVAFMVLLIPLNGAVAVKMRAFQVKQMKLKDSRIKLMSEILNGIKVLKLYAWEPSFLKQVEGIRQGELQLLRTAAYLHTTTTFTWMCSPFLVTLITLWVYVYVDPNNVLDAEKAFVSVSLFNILRLPLNMLPQLISNLTQASVSLKRIQQFLSQEELDPQSVERKTISPGYAITIHSGTFTWAQDLPPTLHSLDIQVPKGALVAVVGPVGCGKSSLVSALLGEMEKLEGKVHMKGSVAYVPQQAWIQNCTLQENVLFGKALNPKRYQQTLEACALLADLEMLPGGDQTEIGEKGINLSGGQRQRVSLARAVYSDADIFLLDDPLSAVDSHVAKHIFDHVIGPEGVLAGKTRVLVTHGISFLPQTDFIIVLADGQVSEMGPYPALLQRNGSFANFLCNYAPDEDQGHLEDSWTALEGAEDKEALLIEDTLSNHTDLTDNDPVTYVVQKQFMRQLSALSSDGEGQGRPVPRRHLGPSEKVQVTEAKADGALTQEEKAAIGTVELSVFWDYAKAVGLCTTLAICLLYVGQSAAAIGANVWLSAWTNDAMADSRQNNTSLRLGVYAALGILQGFLVMLAAMAMAAGGIQAARVLHQALLHNKIRSPQSFFDTTPSGRILNCFSKDIYVVDEVLAPVILMLLNSFFNAISTLVVIMASTPLFTVVILPLAVLYTLVQRFYAATSRQLKRLESVSRSPIYSHFSETVTGASVIRAYNRSRDFEIISDTKVDANQRSCYPYIISNRWLSIGVEFVGNCVVLFAALFAVIGRSSLNPGLVGLSVSYSLQVTFALNWMIRMMSDLESNIVAVERVKEYSKTETEAPWVVEGSRPPEGWPPRGEVEFRNYSVRYRPGLDLVLRDLSLHVHGGEKVGIVGRTGAGKSSMTLCLFRILEAAKGEIRIDGLNVADIGLHDLRSQLTIIPQDPILFSGTLRMNLDPFGSYSEEDIWWALELSHLHTFVSSQPAGLDFQCSEGGENLSVGQRQLVCLARALLRKSRILVLDEATAAIDLETDNLIQATIRTQFDTCTVLTIAHRLNTIMDYTRVLVLDKGVVAEFDSPANLIAARGIFYGMARDAGLA
UniProt Q92887, sequence (whole entry, looked up): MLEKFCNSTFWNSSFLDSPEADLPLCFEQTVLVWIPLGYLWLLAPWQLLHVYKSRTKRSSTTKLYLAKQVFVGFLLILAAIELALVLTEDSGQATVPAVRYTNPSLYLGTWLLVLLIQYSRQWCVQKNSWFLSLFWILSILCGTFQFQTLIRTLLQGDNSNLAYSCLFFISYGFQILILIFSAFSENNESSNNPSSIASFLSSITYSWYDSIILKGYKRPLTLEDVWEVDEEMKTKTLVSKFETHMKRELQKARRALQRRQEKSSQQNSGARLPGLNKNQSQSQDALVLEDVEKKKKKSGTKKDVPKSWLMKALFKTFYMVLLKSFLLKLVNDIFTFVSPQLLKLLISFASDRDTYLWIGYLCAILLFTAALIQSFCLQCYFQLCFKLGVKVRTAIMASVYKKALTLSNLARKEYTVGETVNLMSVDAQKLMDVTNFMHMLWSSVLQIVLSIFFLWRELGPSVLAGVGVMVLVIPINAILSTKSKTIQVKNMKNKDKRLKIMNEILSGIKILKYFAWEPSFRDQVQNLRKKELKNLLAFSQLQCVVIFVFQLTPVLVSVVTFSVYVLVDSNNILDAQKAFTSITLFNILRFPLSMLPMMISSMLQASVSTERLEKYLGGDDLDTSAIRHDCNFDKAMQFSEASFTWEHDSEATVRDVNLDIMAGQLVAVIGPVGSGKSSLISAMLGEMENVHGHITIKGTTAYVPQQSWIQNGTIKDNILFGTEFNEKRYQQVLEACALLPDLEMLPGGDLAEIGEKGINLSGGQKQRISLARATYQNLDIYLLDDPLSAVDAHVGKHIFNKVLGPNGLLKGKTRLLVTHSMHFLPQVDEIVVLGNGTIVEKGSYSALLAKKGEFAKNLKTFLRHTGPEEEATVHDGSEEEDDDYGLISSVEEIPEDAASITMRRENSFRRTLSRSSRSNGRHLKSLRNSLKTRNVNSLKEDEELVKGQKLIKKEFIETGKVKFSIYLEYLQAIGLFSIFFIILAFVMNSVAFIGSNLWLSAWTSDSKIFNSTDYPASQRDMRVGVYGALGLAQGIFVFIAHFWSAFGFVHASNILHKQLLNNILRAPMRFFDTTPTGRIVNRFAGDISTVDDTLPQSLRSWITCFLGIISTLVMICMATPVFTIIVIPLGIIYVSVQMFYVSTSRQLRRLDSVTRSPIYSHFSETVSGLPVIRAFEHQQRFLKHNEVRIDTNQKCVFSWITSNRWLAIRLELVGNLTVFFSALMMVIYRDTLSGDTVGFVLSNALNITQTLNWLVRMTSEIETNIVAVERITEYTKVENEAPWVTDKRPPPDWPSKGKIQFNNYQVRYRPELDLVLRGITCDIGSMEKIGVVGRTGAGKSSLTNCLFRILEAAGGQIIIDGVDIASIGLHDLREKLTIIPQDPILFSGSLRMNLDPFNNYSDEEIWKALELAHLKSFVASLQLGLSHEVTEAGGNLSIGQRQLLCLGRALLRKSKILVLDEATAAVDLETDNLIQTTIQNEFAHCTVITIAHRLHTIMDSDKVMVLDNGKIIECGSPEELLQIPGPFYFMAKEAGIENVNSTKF

Substance | target or system | test | test system | setting | scale | quantity | value
BICD2-miniTurboID C-terminus N188T (Homo sapiens) | CSPP1 (Homo sapiens) | proximity biotinylation, western blot |  | 500 µM, 40 minutes, read off a plot | reference: unchanged protein, higher = more binding | relative binding | 2
N#C[C@@H]1CC(F)(F)CN1C(=O)CNC(=O)c1ccnc2ccc(OCCCN3CCN(C(=S)Nc4ccc(C[C@H]5CN(CC(N)=O)CCN(CC(N)=O)CCN(CC(N)=O)CCN5CC(N)=O)cc4)CC3)cc12 |  | shake flask | n-octanol/PBS | pH 7.4, 203Pb-labelled |  | logD | -2.42 ± 0.17
B1 (SLCO1B1) | O=C(c1ccc(OCCN2CCCCC2)cc1)c1c(-c2ccc(O)cc2)sc2cc(O[C@@H]3O[C@H](C(=O)O)[C@@H](O)[C@H](O)[C@H]3O)ccc12 | steady-state kinetics | HEK293 cells | pH 7.4, 37 °C |  | Vmax | 1.26e-05 µmol/min/mg
CCCC[C@H](NC(=O)CCCCCCCNC(=O)CN1CCN(CC(=O)O)CCN(CC(=O)O)CC1)C(=O)N[C@H]1CC(=O)NCCCC[C@@H](C(N)=O)NC(=O)[C@H](Cc2c[nH]c3ccccc23)NC(=O)[C@H](CCCNC(=N)N)NC(=O)[C@@H](Cc2ccccc2)NC(=O)[C@H](Cc2c[nH]cn2)NC1=O [technetium-99m labelled] |  |  | C57 mouse, heart | intravenous, 0.037 MBq, 24 h |  | tissue uptake | 0.04 %ID/g
P1 S316D | ITCH | GST pull-down |  |  | reference: unchanged protein | relative binding | 2.4
B2 (ABCC3) | O=C(c1ccc(OCCN2CCCCC2)cc1)c1c(-c2ccc(O)cc2)sc2cc(O[C@@H]3O[C@H](C(=O)O)[C@@H](O)[C@H](O)[C@H]3O)ccc12 | steady-state kinetics | Sf9 vesicles | pH 7, 37 °C, not purified, together with: ATP |  | Vmax | 0.000123 µmol/min/mg
CCCC[C@H](NC(=O)COCCOCCNC(=O)CN1CCN(CC(=O)O)CCN(CC(=O)O)CC1)C(=O)N[C@H]1CC(=O)NCCCC[C@@H](C(N)=O)NC(=O)[C@H](Cc2c[nH]c3ccccc23)NC(=O)[C@H](CCCNC(=N)N)NC(=O)[C@@H](Cc2ccccc2)NC(=O)[C@H](Cc2c[nH]cn2)NC1=O [technetium-99m labelled] |  |  | C57 mouse, blood | intravenous, 0.037 MBq, 2 h |  | tissue uptake | 0.24 ± 0.07 %ID/g
GGGCUCACCACGCACGGUGCGUGCUUUCCGUUGUGUUUGGCCUCACCACGGCAAGCU | SMN1 full length | nitrocellulose filter binding | RNA, in vitro | 100 nM, whole RNA, constant flanks, single concentration, ends assumed | reference: round 9 selected pool, higher = stronger binding | relative RNA binding | 87 % of pool
ABCC2 (Homo sapiens, UniProt Q92887) | O=C(c1ccc(OCCN2CCCCC2)cc1)c1c(-c2ccc(O[C@@H]3O[C@H](C(=O)O)[C@@H](O)[C@H](O)[C@H]3O)cc2)sc2cc(O[C@@H]3O[C@H](C(=O)O)[C@@H](O)[C@H](O)[C@H]3O)ccc12 | steady-state kinetics | Sf9 vesicles | pH 7, 37 °C, not purified, together with: ATP |  | Vmax | 0.00151 µmol/min/mg
N#C[C@@H]1CC(F)(F)CN1C(=O)CNC(=O)c1ccnc2ccc(OCCCN3CCN(C(=S)Nc4ccc(C[C@H]5CN(Cc6ccccn6)CCN(Cc6ccccn6)CCN(Cc6ccccn6)CCN5Cc5ccccn5)cc4)CC3)cc12 [lead-203 labelled] |  | shake flask | n-octanol/PBS | pH 7.4, 203Pb-labelled |  | logD | -0.76 ± 0.03
CC(C)C[C@H](NC(=O)[C@@H](CCCCNC(=O)[C@@H](Cc1ccccc1)NC(=O)CCCCCNC(=O)CN1CCN(CC(=O)O)CCN(CC(=O)O)CCN(CC(=O)O)CC1)NC(=O)[C@H](Cc1ccc(O)cc1)NC(=O)[C@H](CO)NC(=O)[C@H](Cc1c[nH]c2ccccc12)NC(=O)[C@H](Cc1c[nH]cn1)NC(=O)[C@@H]1CCC(=O)N1)C(=O)N[C@@H](CCCNC(=N)N)C(=O)N1CCC[C@H]1C(=O)NCC(N)=O [indium-111 labelled] |  |  | female athymic nude mice, muscle | intravenous, 0.037 MBq, 1 h |  | tissue uptake | 0.04 ± 0.03 %ID/g
CC(C)C[C@H](NC(=O)[C@H](Cc1ccc(O)cc1)NC(=O)[C@@H](CCCNC(=N)N)NC(=O)[C@@H](CO)NC(=O)[C@H](Cc1ccccc1)NC(=O)[C@H](CC1CCCCC1)NC(=O)[C@H](CC(=O)O)NC(=O)CN1CCN(CC(=O)O)CCN(CC(=O)O)CCN(CC(=O)O)CC1)C(=O)N[C@@H](Cc1c[nH]c2ccccc12)C(=O)N[C@@H](CO)C(=O)O [copper-64 labelled] |  |  | human, liver | concentration not given, 1 h |  | activity concentration | 6460 Bq/mL and 10900 Bq/mL and 8020 Bq/mL and 8290 Bq/mL and 12000 Bq/mL and 13600 Bq/mL
GGGCUCACCACGCACGUGCGCGGUAUAGUGGAUUUGGGGGCCUCACCACGGCAAGCU | SMN1 full length | nitrocellulose filter binding | RNA, in vitro | 100 nM, whole RNA, constant flanks, single concentration, ends assumed | reference: round 9 selected pool, higher = stronger binding | relative RNA binding | 117 % of pool
